Measured values pooled from the literature.
Each numbered part is a random draw from the data of one study; scales do not carry over between parts.

Block 1 — method: universal PBM; molecule type: double-stranded DNA, one strand shown; medium: in vitro; tested at: 600 nM; direction: higher = stronger binding; measurement: E-score
Target: Sal-like protein 4, full length isoform A (SALL4, Homo sapiens, UniProt Q9UJQ4, residues 1-1053)
UniProt Q9UJQ4, sequence (whole entry, looked up): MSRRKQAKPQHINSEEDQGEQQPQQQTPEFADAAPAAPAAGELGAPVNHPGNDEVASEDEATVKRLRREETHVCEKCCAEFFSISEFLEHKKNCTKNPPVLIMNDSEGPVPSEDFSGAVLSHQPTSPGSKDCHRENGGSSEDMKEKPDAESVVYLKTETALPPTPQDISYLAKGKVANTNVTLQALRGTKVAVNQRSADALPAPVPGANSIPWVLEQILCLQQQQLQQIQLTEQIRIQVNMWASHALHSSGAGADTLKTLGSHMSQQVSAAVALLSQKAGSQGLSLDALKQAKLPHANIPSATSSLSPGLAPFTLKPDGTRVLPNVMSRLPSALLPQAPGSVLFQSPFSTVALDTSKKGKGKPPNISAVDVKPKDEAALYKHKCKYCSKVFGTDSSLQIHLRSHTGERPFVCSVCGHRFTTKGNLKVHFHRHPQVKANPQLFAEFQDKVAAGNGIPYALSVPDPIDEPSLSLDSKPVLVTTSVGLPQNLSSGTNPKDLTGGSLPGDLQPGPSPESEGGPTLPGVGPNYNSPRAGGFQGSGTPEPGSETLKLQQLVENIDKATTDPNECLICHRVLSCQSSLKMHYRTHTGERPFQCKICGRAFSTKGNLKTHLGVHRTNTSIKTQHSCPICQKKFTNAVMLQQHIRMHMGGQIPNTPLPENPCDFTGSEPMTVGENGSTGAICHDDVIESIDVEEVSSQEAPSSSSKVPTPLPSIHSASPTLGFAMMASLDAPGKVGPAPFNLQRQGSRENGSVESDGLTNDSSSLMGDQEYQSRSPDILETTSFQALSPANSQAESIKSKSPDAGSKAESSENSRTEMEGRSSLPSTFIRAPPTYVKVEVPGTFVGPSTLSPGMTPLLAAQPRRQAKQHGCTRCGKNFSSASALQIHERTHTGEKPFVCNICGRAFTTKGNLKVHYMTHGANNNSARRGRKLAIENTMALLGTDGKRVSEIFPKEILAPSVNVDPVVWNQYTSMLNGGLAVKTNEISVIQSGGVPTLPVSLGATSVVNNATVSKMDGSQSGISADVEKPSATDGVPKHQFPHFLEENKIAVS
Setting: 8-mer, flanks averaged, mean of replicates
CAGGTAGG: -0.0666
CGGGCGGA: -0.318
CGTAATCA: 0.262
CGACTTGC: -0.171
ACTCTCCT: 0.0312
AGCGCTAG: -0.208
ATCACACC: -0.081
CTAGGCAC: -0.139
GCAAAGGC: -0.111
TTAGTGAA: 0.179
ACCGACTC: -0.113
GGCTTTAC: -0.103
AAAGCTAG: 0.0657
TGTCTAAA: 0.247
AAGACTCC: -0.158
CAAGCAAC: 0.0601
CGTAGGCC: -0.0765
AATGCGCT: -0.0869
CATGATGC: 0.0817
GGGGGCTA: -0.332
GCCCCGCA: -0.358

Block 2 — method: protein binding microarray; molecule type: double-stranded DNA, one strand shown; medium: in vitro; tested at: not given; relative to: not given; direction: higher = stronger binding; measurement: E-score
Target: Histone acetyltransferase KAT6A, both winged helices, GST fusion (KAT6A, Homo sapiens, UniProt Q92794, residues 1-181)
Setting: 8-mer, flanks averaged, mean of 2 arrays, mostly near background
Residues (chain): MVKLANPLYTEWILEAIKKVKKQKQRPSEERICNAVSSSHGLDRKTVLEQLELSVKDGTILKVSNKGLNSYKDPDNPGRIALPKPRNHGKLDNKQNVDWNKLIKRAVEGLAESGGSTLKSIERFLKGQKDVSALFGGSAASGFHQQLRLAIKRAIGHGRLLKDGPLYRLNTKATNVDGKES
AGAATTTG: -0.121
GAGTGACC: -0.109
CTGCCCCA: -0.184
CCTTGTCG: -0.037
AACAGGTT: -0.168
TACTCACA: -0.218
AGCTGATA: -0.117
ACCGTCGT: 0.0899
ACAGTGCG: 0.158
CAGAGCAG: -0.186
AACTTTAC: -0.0377
ATCCTGAC: -0.126
GCACCTCC: -0.0199
ACAGCCTA: -0.15
CCAATCCG: 0.0506
ATTAAGCA: -0.162
AGGTGGCA: -0.224

Block 3 — method: RNA Bind-n-Seq; molecule type: RNA; medium: in vitro; tested at: 365 nM; relative to: no-protein control; direction: higher = stronger binding; measurement: RBNS enrichment (R)
Target: RNA binding protein fox-1 homolog 2, RRM domain, GST-SBP tag (RBFOX2, Homo sapiens, UniProt O43251-10, residues 100-194)
Setting: natural RNA segment, single round, ends assumed
Shared flanks, not repeated: GGGAGUUCUACAGUCCGACGAUC … UGGAAUUCUCGGGUGCCAA
Residues (chain): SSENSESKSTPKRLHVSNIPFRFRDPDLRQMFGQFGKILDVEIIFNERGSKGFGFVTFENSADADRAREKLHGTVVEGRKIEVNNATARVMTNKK
GAGGGCCUGCCGUGACGCUCAGUGGAGAGGGCAGGGCCUGUGUCUCCACUUAGGCCACACAGUGAUGAGGAAACCACAGAUGGAGCUUCUUGCCGAUAAUACUGACUCUA: 1.14
GAGCCUGUAUAUAAAUUAAAAUAGUCAAGACAACACUGACCUUGCACUUGUACAUAACUAUACAGUAGUGUCCAGAAUGUUCAGACAUUCGGAGUGUACAUAAAACAGAA: 0.52
CAGAGUGCACAUGAAAAAUCAGGCAGGGAAUCGAAACGACAGUGCUGGAGGAGACUCAGGAAGCAGAGGCGUCCCUGCCGCUGCCCUUGGCCCUGCAAGCACAUCAUGAC: 0.284
CCGGAGGCCCCACGAGCAGGCCCCAGCAGUCACCGGCUCUGGUCUUGGGCCGGCCCCGGUGCCCACCUGUACCCCCACCUCGCCCAUUUGGCCGCGUGCACUGAGUGUCA: 0.414
UUUCUGUGACUGUCUUAGGUGACGUGUAGCCCUCUUCCGUUUUUUCACCCAACAACUUCCUCUGUCCUGCUGCACGGUCCAGAGUCUGGGACCGACUUUGUUUCUUUGUU: 0.759
CCCAUUUUAAGGUAAUCUCAUUCUUCAAAAUGUUCCAUAGAAUCCUCCAAAUUCCCCCAGCAGACUUCUACCCUCGCCAAGUUCCCAAAACCCACUCAGCAAAGUUGCCA: 0.678
CCUUGUCUGGUAAUUGUGGAUUAAUGUCAGCGUUAAUCAGCCCCUCAAAGGGAGAGAAAAGCUGGGCUUUUCCCUUGCUGUACCUCAUUCAGCUUUUGAUUUCCAUGGCC: 0.235
GCUUAUGAGCAGUAAUUUAAGAAAACCCACAAAACUUGAUUGUGAAAAACCGAAUAACCAAGCAGCGCGUCUGCUCUUUCCCUGAUUCGCAUGUGACUGUGAUGCUUUCC: 0.552
UUUCUUACUUUCCCACCCGCUUUCUCUCUGGUCUUCUCCCAGGCUGGAUCUGGGCGAAGUGUCACUUUUUAGUGCCUAAAGUCCUAUUGUUUCUCUGUGCCCUAAGAGCA: 2.42
CAUCUUCCAAUCCCUGGAAAAGUCUGGUCUGAGUGUGACUUGGGAAGCUUUCAGUGCUGCUGUUUGGCCCAGCUCAUUACUUUCUCCCUUUCUCUACCACAGCAAACACA: 0.379
UCAGAAAUCCGCCUGCCUCUGCCUCCCAAGUGCUGGGAUUAAAGGCGUGCGCCACCUCCGCCCAGCUCAGAACUUCACUUUUAAAAGUAAUCUGUUCCCAGUGUGGUAUC: 0.281
CCUUCCUGCUGCCCUAUCCUCUGCCUUAGAAGAAAUGGGAACAGCUUGUAGGGAAGGGACAAGCUGCAGAGGAACAGUGAUUUAAAGGCCCUUGGAGCUAGUCCCCUCAG: 0.269

Block 4 — method: RNA Bind-n-Seq; molecule type: RNA; medium: in vitro; tested at: not given; relative to: input RNA pool; direction: higher = stronger binding; measurement: bound/input enrichment
Target: RING finger protein unkempt homolog, zinc fingers 1-6, GST-SBP tag (UNK, Homo sapiens, UniProt Q9C0B0, residues 30-357)
Setting: RNA with constant flanks, human-mouse chimeric sites, ends assumed
Shared flanks, not repeated: GGGAGUUCUACAGUCCGACGAUC … CAACAGAGGAUUGAGCAUCA
Construct (chain): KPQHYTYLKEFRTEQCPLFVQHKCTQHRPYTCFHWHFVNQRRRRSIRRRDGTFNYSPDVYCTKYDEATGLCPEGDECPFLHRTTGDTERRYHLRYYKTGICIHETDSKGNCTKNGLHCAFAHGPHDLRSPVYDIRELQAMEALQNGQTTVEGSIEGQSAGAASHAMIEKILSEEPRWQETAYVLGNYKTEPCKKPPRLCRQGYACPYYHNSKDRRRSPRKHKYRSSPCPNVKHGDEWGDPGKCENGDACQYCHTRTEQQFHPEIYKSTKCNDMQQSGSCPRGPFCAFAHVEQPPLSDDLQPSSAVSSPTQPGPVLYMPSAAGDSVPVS
AAAGCCCAAGUAUUUUGAAAAAACUCGAACAGAUUUGACAAGGGUAGCCAGCUUGGAGUCUAGCAAUUUGCCAAUGUGUUUACCAAUUUUGGGGGCUGUUUUUCUUUUCUUCUUUCAAAU: 0.894 ratio
CCAAUCGUGGAGCAGUACUUGAAGACAAAGAAAAAUUCUAAUAAUUUAAUCAUCAAGUACAUUAGCUGCCGCCUGCUGACACUCAUCAUUAUACUGUUAGCGUGUAUCUACUUGAGCUAU: 0.203 ratio
UUAAUCCCCUUUACUGCUCCCCCACUUCUCAUGGUAAUGACAAAAACUUAUAUCCCCGUCCUAGCUUUCACUCAGAUGGCUUAUGGAGCCAGUUUCCUAGCUUUCUUGGGAGGGAUCAGA: 0.28 ratio
AGAAAGCAAAACUUGGAAAGAUUUAAGAAAGGAGACGUAAGAUUCUUGAUUUGCACAGAUGUAGCUGCUAGAGGGAUUGAUAUCCAUGGCGUUCCUUAUGUUAUAAACGUCACCCUGCCU: 0.305 ratio
AUAUUUCAUAUUGCAAAGAUGUUUACAAGUAUUUUAAUUUAAGUUCAGUGAACUUUUUUGUAGCUGGGUUAAAUCUUUUUAUUUUAGUAUGGCCUUAAUGGCAAAGACACUGUAUUAUUU: 4.07 ratio
UCUUAACUUAUUCAUUUAACUUAUUUUUAGCACUUAGUAAAUAUUGUUAGUCUUAGACAAUAGCUCACAUUUUUUGAAAAGCAUGCUCUCCCUGUCCAUUUGUCUUAUAACAUGACCCAG: 560 ratio
GGGUGGGUGGUCAUUGCCGUUUGAGCUGCUGAUUUUCAUGAGUCGCCUUCAAAACUCUCGCAUAGGGUUGACAAUGUGGGGGGGUGGGGGAUCCAGCUUAUUCUUUUAUUUUCAAGUCCA: 0.496 ratio
GAACCUGCUCUCUCUGAUGAAGAUGAGGACAGUGAUGAUGAUGUUGAACCCAUUUCUGAAUUUCGAUUUGUGCCCAGUGAUAAGUCAGCAUUGGAGGCGAUGUUCACAGCAAUGUGUGAG: 0.209 ratio
CUGAGGAUACCACUGAAGAGACCUUAAAAGGAGUCAUUGAGGGCUCUCGUUCGGGCAGAAUAGUCACUGAUCGGGAAACUGGUUCUUCCAAAGGGUUUGGUUUUGUAGACUUUAAUAGUG: 1.04 ratio
CGCUGGCCCAAGCUGAUGGACUCUGAUGGCCUCCAUCUCUCAGGCACGUGUGCCUUCUCUUAGUUAUUGUUUUCGGGAUGUUAUGAAUCUCAGUACUGUGGUUUGAAAGCAGUUAUGUUG: 7.31 ratio
GAGCGUCUUGCCCGCACUGGGAUCAUCGUGACCACGAGUGAGGCUGUCCUCCUACAGCUGGUGGCUGACAAAGACCACCCGAAGUUCAAGGAAAUUCAGAAUCUAAUUAAGGCGAGUGCC: 0.0969 ratio
